# Measurements of several laboratories.
# Every numbered part comes from another study and shows a few of its results, in no order.

# Study 1
# Target: RNA binding protein fox-1 homolog 2, RRM domain, GST-SBP tag (RBFOX2, Homo sapiens, UniProt O43251-10, residues 100-194)
# Technique: RNA Bind-n-Seq
# Form: RNA
# Medium: in vitro
# Concentration: 365 nM
# Notes: natural RNA segment, single round, ends assumed
# Reference: no-protein control
# Reading: higher = stronger binding
# Shared flanks, not repeated: GGGAGUUCUACAGUCCGACGAUC … UGGAAUUCUCGGGUGCCAA
# Construct (chain): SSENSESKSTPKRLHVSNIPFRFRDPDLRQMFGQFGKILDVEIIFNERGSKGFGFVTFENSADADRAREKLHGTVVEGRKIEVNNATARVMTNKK
Strand,RBNS enrichment (R)
CCAGCAUGGAUGGUGGAACCACAGUACCUCUUACACUCCCUGUGGCUCCAACUUCAGGAAAUAAAUUUCCCAUUGCGAGGGACCCAGCUCUGUUUCUGCUGCUUCCAUCA,0.909
AUAGCACUGAAGUUGCAACUUUUUUCUUGUAAUUGUUUUGCUACUAAGAUAAUUUCAGAAGUUCAGUCUAUUUUUUCAGCGGAUACUGCCGCCACCAAGAAUCCAAAACC,1.35
GAGUUGGGCAGAAGUCAGACAUUACGGUGAGAUUCAGGGCUCAGAGUGGGGGUGCUGUACUCACUGGCUUUGUGACCUGGCCUGGGGGGGGUUCCAGGUAAGAGAAACAG,0.806
UUUUUUUUAAGGGCCUUGGAGCCAUCUCUAAAACAAACCUCAAGGGAUUUAGUGCCCUGUCUCCCUGUCUCUAGAAGCCUUAGCCUGGGCACCUGGCUCAAUCUUGUAAC,0.435
AAACAAUGGUAAGCACUGAAGUAUAAUAAGUAACCUUUGGUACAGCAGGUUUGCUGCAGUGUUUUUUUCUGUCCACAUGCAAAUUUUGGAUUCUAUCCCAGACCCAGGUU,0.309
CAAGCAGCUACCUACCUUGACUCCCAUAGCUUAGGACACAAGCCAGCUCUGAGCUACAUGAAGUAAUGAGCAGAGAUGAGUACUCACAGUCCAUCACCAGGCCAGCUUCU,0.352
CCCAUGAUUGGCUAUAAACGUUUUGUAAGAAGUCACUCUCCUUGAAAAUACUGAACAUAGCUGUAUAGGUUUGUGAUUAUUAGAGAAUAUGUUAAUAAAACUUCUUGUAA,0.553
CAGAGUUGUUUCCCAAUUCUGGAGGGAAGCUGAAUGGACACGGCUUCGUCAGUUUGCAUUUCUUUACUCCCACAAGGCUCUGCGGGGUCUUGGUGUGAGACAAGGCACAU,0.622

# Study 2
# Target: Histone acetyltransferase KAT6A, both winged helices, GST fusion (KAT6A, Homo sapiens, UniProt Q92794, residues 1-181)
# Technique: protein binding microarray
# Form: double-stranded DNA, one strand shown
# Medium: in vitro
# Concentration: not given
# Notes: 8-mer, flanks averaged, mean of 2 arrays, mostly near background
# Reference: not given
# Reading: higher = stronger binding
# Construct (chain): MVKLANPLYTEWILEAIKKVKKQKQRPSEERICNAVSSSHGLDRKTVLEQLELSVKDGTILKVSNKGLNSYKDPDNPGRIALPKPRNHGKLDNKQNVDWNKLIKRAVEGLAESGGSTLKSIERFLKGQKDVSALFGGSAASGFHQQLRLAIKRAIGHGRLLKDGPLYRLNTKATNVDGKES
Strand,E-score
GCAAGCGC,0.266
ATGGACTA,-0.131
GAGAAACA,-0.0709
TAACTAGA,0.0221
CAGTGAGA,-0.253
AGCGGACC,0.129
CGTCGTTA,0.0309
CGACAGTA,0.0445
AATTAGGA,-0.0737
CAGTCTCA,-0.154
CCGTCTAA,0.195
ACCCTCAT,-0.216
CCTGGACC,-0.169
GGCTAGGA,-0.194
GAAGAATC,-0.0635
CCGCAGTA,0.109
CTTAGCTA,-0.249

# Study 3
# Target: Phosphate system positive regulatory protein PHO4, full length, GST-tagged (PHO4, Saccharomyces cerevisiae, UniProt P07270, residues 1-312)
# Technique: competition protein-binding microarray
# Form: double-stranded DNA, one strand shown
# Medium: in vitro
# Concentration: 2 µM
# Notes: whole 60-bp probe, lowest competitor level
# Together with: Cbf1 competitor, 0.05 µM
# Reading: higher = stronger binding
# Shared flanks, not repeated: … GTCTTGATTCGCTTGACGCTGCTG
# Target sequence (chain): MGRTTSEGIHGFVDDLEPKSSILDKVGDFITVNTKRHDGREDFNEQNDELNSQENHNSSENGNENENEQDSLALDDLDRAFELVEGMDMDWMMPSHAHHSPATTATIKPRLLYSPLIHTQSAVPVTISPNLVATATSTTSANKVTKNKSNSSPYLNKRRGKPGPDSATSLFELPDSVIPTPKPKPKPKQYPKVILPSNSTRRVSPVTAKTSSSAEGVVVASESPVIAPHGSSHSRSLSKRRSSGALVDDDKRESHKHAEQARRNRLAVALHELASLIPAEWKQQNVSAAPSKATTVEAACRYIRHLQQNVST
Strand,fluorescence intensity
AAATTACTAAGTTGTTCTGTGGGTGACGCCGTATGA,3620 a.u.
ACTAGTAAGGGTAGTGGTGTGACGCTGACCCGATCG,4860 a.u.
ACTTGGCCCTATTCATCCGTGACGGGATCATATCTT,3640 a.u.
TTCCCAGTGAAATTTCACGTGATGGAATCTGATGAA,9810 a.u.
TTTTTTTTCCGTAGTGCCGTGCCGACATTACCGAAT,6330 a.u.
TCTCGGTTGTTCAAGGTCGTGCTAACCATATGGCAT,9420 a.u.
AAAGCGGTAATTTGTCACGAAACTTCACATATCTAT,3480 a.u.
ACATCTTTCAATTTGCACGGGTGCAACCTCAAATAT,8400 a.u.
TGGACAGCGCTTCCCAGCGTGCTTTACATAATGCTT,7180 a.u.
CGCTTATTTGTAGAGTTTGTAGTTTTTAAGCGTTCT,2930 a.u.
GTCCGCTTACGTCTGTGCGTGCGGATTGTCCCACAA,8760 a.u.
TTCTTGGAAAGAACCGTCGTGGGTATAACCAGACAA,6340 a.u.
GGACAACATGGACTCATCGTGATGGGACTGATATGA,7290 a.u.
TGTATAAGGACTACCCACGTGAGACCGTTTCCAAAC,16000 a.u.
ACAATGGTGGGATGGCCCGTGGGTAAGTCGTGTAGT,12700 a.u.
CTTTCCCGATCTTGCGAGGTGGGTGTAGCACATTTG,4340 a.u.
TGTGTCATCTTCGCGCGCGTGCTAAAAAAAACGAAT,13400 a.u.
TAAAATGAAAAATGATCCGTGATGGGAAAAGTTATA,4200 a.u.
GGGGCTGTCCCGCCCCACGTGGACCGGCTCCCCGCT,17600 a.u.

# Study 4
# Target: PABPC1L2, full length, GST fusion (mouse, UniProt A0ABA7IW68)
# Technique: RNAcompete
# Form: RNA
# Medium: in vitro
# Concentration: 20 nM
# Notes: 7-mer, probes averaged, single round
# Reference: mean of 7-mers
# Reading: higher = stronger binding
Strand,7-mer Z-score
UAAGCAG,0.00979
GGAGUGC,-0.0391
UGGGCUG,0.153
ACUAGCA,-0.0844
AGAACUU,-0.186
UUCCGCC,-0.427
AGCACGU,-0.197
GAACCUC,-0.246
UCCCACU,-0.342
UGGGACC,-0.0609
GCAUUUU,-0.171
AAUGAGA,0.189
CCACUUG,-0.208
UAUUUAU,-0.0391
GGAAAGG,0.245
UAACUAU,-0.0899

# A few entries again (study 1):
Strand,RBNS enrichment (R)
CCAGCAUGGAUGGUGGAACCACAGUACCUCUUACACUCCCUGUGGCUCCAACUUCAGGAAAUAAAUUUCCCAUUGCGAGGGACCCAGCUCUGUUUCUGCUGCUUCCAUCA,0.909
AUAGCACUGAAGUUGCAACUUUUUUCUUGUAAUUGUUUUGCUACUAAGAUAAUUUCAGAAGUUCAGUCUAUUUUUUCAGCGGAUACUGCCGCCACCAAGAAUCCAAAACC,1.35
GAGUUGGGCAGAAGUCAGACAUUACGGUGAGAUUCAGGGCUCAGAGUGGGGGUGCUGUACUCACUGGCUUUGUGACCUGGCCUGGGGGGGGUUCCAGGUAAGAGAAACAG,0.806
UUUUUUUUAAGGGCCUUGGAGCCAUCUCUAAAACAAACCUCAAGGGAUUUAGUGCCCUGUCUCCCUGUCUCUAGAAGCCUUAGCCUGGGCACCUGGCUCAAUCUUGUAAC,0.435
AAACAAUGGUAAGCACUGAAGUAUAAUAAGUAACCUUUGGUACAGCAGGUUUGCUGCAGUGUUUUUUUCUGUCCACAUGCAAAUUUUGGAUUCUAUCCCAGACCCAGGUU,0.309
CAAGCAGCUACCUACCUUGACUCCCAUAGCUUAGGACACAAGCCAGCUCUGAGCUACAUGAAGUAAUGAGCAGAGAUGAGUACUCACAGUCCAUCACCAGGCCAGCUUCU,0.352
CCCAUGAUUGGCUAUAAACGUUUUGUAAGAAGUCACUCUCCUUGAAAAUACUGAACAUAGCUGUAUAGGUUUGUGAUUAUUAGAGAAUAUGUUAAUAAAACUUCUUGUAA,0.553
CAGAGUUGUUUCCCAAUUCUGGAGGGAAGCUGAAUGGACACGGCUUCGUCAGUUUGCAUUUCUUUACUCCCACAAGGCUCUGCGGGGUCUUGGUGUGAGACAAGGCACAU,0.622
